{"data": "Measured values collected from several papers", "note": "± marks the error that the study gave."}
{"SMILES": "CN1CC[C@]23c4c5ccc(O[C@@H]6O[C@H](C(=O)O)[C@@H](O)[C@H](O)[C@H]6O)c4O[C@H]2[C@@H](O)C=C[C@H]3[C@H]1C5", "test system": "Sprague-Dawley rat, whole blood", "conditions": "intraperitoneal, 10 mg/kg heroin, single heroin dose alone", "Cmax": "2110 ± 227 ng/mL"}
{"SMILES": "COC[C@@]12CC[C@H](OC)[C@]34C(C([C@H](OC)[C@H]13)[C@]1(OC(C)=O)[C@H]3[C@@H](OC(=O)c5ccccc5)[C@](O)(C[C@H]34)[C@@H](OC)[C@@H]1O)N(C)C2", "test system": "Sprague-Dawley rat, plasma", "conditions": "oral, dose not given, with NADES in PCW extract", "Cmax": "394 ± 49.1 ng/mL"}
{"SMILES": "CCOC(=O)C1=C[C@@H](OC(CC)CC)[C@H](NC(C)=O)[C@@H](N)C1", "assay": "non-compartmental analysis", "test system": "Sprague-Dawley rats, male, plasma", "conditions": "oral, 30 mg/kg, alone", "Cmax": "473 ± 109 ng/mL"}
{"SMILES": "CN1CC[C@]23c4c5ccc(O)c4O[C@H]2[C@@H](O[C@@H]2O[C@H](C(=O)O)[C@@H](O)[C@H](O)[C@H]2O)C=C[C@H]3[C@H]1C5", "assay": "LC-MS/MS", "test system": "male Sprague-Dawley rat, whole blood", "conditions": "intraperitoneal, 10 mg/kg of heroin", "Cmax": "6.64 ± 1.54 ng/mL"}
{"SMILES": "CC(=O)c1c(C)c2cnc(Nc3ccc(C4CCN(CCS(C)(=O)=O)CC4)cn3)nc2n(C2CCCC2)c1=O", "test system": "Sprague-Dawley rat, male", "conditions": "oral, 60 mg/kg, day 28, repeated dosing 4 weeks", "Cmax": "3090 ng/mL"}
{"SMILES": "CC(=O)Oc1ccc2c3c1O[C@H]1[C@@H](OC(C)=O)C=C[C@H]4[C@@H](C2)N(C)CC[C@@]341", "assay": "LC-MS/MS", "test system": "Sprague-Dawley rat, male, whole blood", "conditions": "intraperitoneal, 10 mg/kg", "Cmax": "9.88 ± 3.41 ng/mL"}
{"SMILES": "Cc1ccc(S(=O)(=O)Nc2c(N[C@H]3CC[C@H](NC(=O)Nc4ccc(F)c(Cl)c4)CC3)c(=O)c2=O)cc1", "test system": "rat, plasma", "conditions": "intravenous, 10 mg/kg", "Cmax": "11.1 µM"}
{"SMILES": "CCN1C[C@]2(COC)[C@H](O)C[C@H](OC)[C@@]34[C@@H]5C[C@@]6(O)[C@H](OC(=O)c7ccccc7)[C@@H]5[C@@](OC(C)=O)([C@@H]([C@H](OC)[C@H]23)[C@@H]14)[C@@H](O)[C@@H]6OC", "test system": "Sprague-Dawley rat, plasma", "conditions": "oral, dose not given, with NADES in PCW extract", "Cmax": "39.2 ± 8.09 ng/mL"}
{"SMILES": "COC(=O)[C@H]1[C@@H](OC(=O)c2ccccc2)C[C@@H]2CC[C@H]1N2", "assay": "LC-MS/MS", "test system": "Sprague-Dawley rat, whole blood", "conditions": "intraperitoneal, 20 mg/kg of cocaine", "Cmax": "134 ± 10.6 ng/mL"}
{"SMILES": "CC1=C(O)C(=O)C=C2C1=CC=C1[C@@]2(C)CC[C@@]2(C)[C@@H]3C[C@](C)(C(=O)O)CC[C@]3(C)CC[C@]12C", "test system": "rat Sprague-Dawley male pups PN5, plasma", "conditions": "intraperitoneal, 4 mg/kg single dose", "Cmax": "~3 ng/mL"}
{"SMILES": "O=C(O)CCC(CP(=O)(O)O)C(=O)O (stereo not shown)", "test system": "Wistar rat, male, dorsal root ganglion", "conditions": "ip, 100 mg/kg", "Cmax": "30700 ng/g"}
{"SMILES": "C=CC[N+]1([C@H]2C[C@H]3[C@@H]4CC[C@H]5C[C@H](O)[C@@H](N6CCOCC6)C[C@]5(C)[C@H]4CC[C@]3(C)[C@H]2OC(C)=O)CCCC1", "test system": "Sprague Dawley rat, plasma", "conditions": "intravenous, dose not given, with: sugammadex 5 mg/kg ODD", "Cmax": "278 ng/mL"}
{"SMILES": "COC[C@]12CN(C)[C@@H]3[C@@H]4[C@H](OC)[C@H]1[C@@]3([C@@H](OC)C[C@H]2O)[C@@H]1C[C@@]2(O)[C@H](OC(=O)c3ccccc3)[C@@H]1[C@]4(OC(C)=O)[C@@H](O)[C@@H]2OC", "test system": "Sprague-Dawley rat, plasma", "conditions": "oral, dose not given, in PCW extract", "Cmax": "176 ± 37.1 ng/mL"}
{"note": "For quick reference, copied from above:"}
{"SMILES": "CN1CC[C@]23c4c5ccc(O[C@@H]6O[C@H](C(=O)O)[C@@H](O)[C@H](O)[C@H]6O)c4O[C@H]2[C@@H](O)C=C[C@H]3[C@H]1C5", "test system": "Sprague-Dawley rat, whole blood", "conditions": "intraperitoneal, 10 mg/kg heroin, single heroin dose alone", "Cmax": "2110 ± 227 ng/mL"}
